Results pooled from the literature.
Each numbered part is a random draw from the data of one study; scales do not carry over between parts.

Sample 1 — technique: RNA Bind-n-Seq; form: RNA; matrix: in vitro; tested at: not given; baseline: input RNA pool; reading: higher = stronger binding
Target: RING finger protein unkempt homolog, zinc fingers 1-6, GST-SBP tag (UNK, Homo sapiens, UniProt Q9C0B0, residues 30-357)
Chain of UniProt Q9C0B0 (30-357, looked up): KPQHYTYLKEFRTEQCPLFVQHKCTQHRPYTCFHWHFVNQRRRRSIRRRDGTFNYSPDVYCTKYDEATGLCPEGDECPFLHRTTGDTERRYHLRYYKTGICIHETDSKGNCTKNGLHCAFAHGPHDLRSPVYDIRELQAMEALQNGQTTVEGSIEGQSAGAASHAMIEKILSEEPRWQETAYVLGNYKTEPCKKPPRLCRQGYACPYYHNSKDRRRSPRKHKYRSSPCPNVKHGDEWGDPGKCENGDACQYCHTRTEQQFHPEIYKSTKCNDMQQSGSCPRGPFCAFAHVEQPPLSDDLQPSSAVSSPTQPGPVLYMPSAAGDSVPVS
Setting: RNA with constant flanks, human and mouse sites, ends assumed
All sequences stand within: GGGAGUUCUACAGUCCGACGAUC … CAACAGAGGAUUGAGCAUCA
For `UUUCUUACCGUGUAUAUCAAGAGCAUCUUCCUUAAUCAGGUCUUGGCUGAGAUCAACAAGGAGAUUGAAGGCGUCACCAAAACCUCAGACCCCUUGAAGAUCCUGGCUAAUGCAGACACC`, the bound/input enrichment was 0.113 ratio.
`GAACUGGUGGACUACAUUACAAUAAGCAGAGGCUGUUUGACAGAGCAGACUUACCCUGAAGUAGUUAGAAUGGUAUCUUGCAAUAUAUUCAGAACUCUCCCUCCUAGUGACAGCAAUGAA` gave a bound/input enrichment of 0.66 ratio.
The bound/input enrichment of `AACUGUGCGAUCAGCAGUUCUGAUGACCGUAGUCUGUUUCGACGGCUGAAACUUAAUUACGCAAUUUUUGAUGAGGGCCAUAUGCUGAAGAAUAUGGGCUCCAUUCGCUACCAGCACCUU` is reported as 0.116 ratio.
With `GCUUUACUUUCAGAAAAUGUUUUAGGGUAACUGCAUAAGACUAUGCAAUAAUUUUUAAUCAUUAGUAUUGAUGGUGUAUUAAAAGUUGUUGUACUUUGUCUGUGACCUUAAUUUUCUGCA` the bound/input enrichment was 0.146 ratio.
For `UGUUUGUGUGUGUGCGUGUGCGUGUGUGUGUGUGUUGGAAUUUCCUAUCUGCCUGGAUAUAUUAGCAGAGUUUGAAUGUAGUUUUGGCCUUUGGCCAUUAGACUUCUAUUAAAAUUCAUU`, the bound/input enrichment was 1.59 ratio.
`AUCCUUUCUGGCACAUCUGACCUACUGCUUACCUUCGAUGAGGCUGAGGUUCGUAAAAUUAUUAGGGUUUGCAAAGGAAUUUUGGAAUAUCUUACAGUGGCAGAGGUAGUGGAAACUAUG` gave a bound/input enrichment of 0.351 ratio.
`ACUCAUUUUGACCCAAUGGGUGUACGCACAGAUGCACCUCUGAUGCAGUUUAAAUCUAUCCUUUUAAAGUACAGCACCCCCACCUACACUGGAGGACAGUCAGAAAGCCAUGUCCAGUCA` has a bound/input enrichment of 0.243 ratio.
`AGUGGGAACAUUACUUUUGAUGAGAUUGUCAACAUUGCCCGGCAGAUGAGACACCGGUCUUUGGCUAGAGAACUUUCUGGAACUAUCAAGGAGAUCCUGGGUACUGCACAGUCUGUGGGC` has a bound/input enrichment of 0.221 ratio.

Sample 2 — technique: aptamer microarray, sandwich; form: DNA with 2'F-ANA; matrix: in vitro; tested at: 200 nM; added: Cy3 exosite-II aptamer, 400 nM; reading: higher = stronger binding; sequence: GGTTGGTGTGGTTGG
Target: Prothrombin, mature alpha-thrombin (F2, Homo sapiens, UniProt P00734)
Setting: whole 15-mer aptamer, many near background
`2'F-ANA at 1 4 8 11 12 14`: “mean fluorescence intensity” 57.8 a.u.
For `2'F-ANA at 3 5 6 8 10 12 14`, “mean fluorescence intensity” read 48.1 a.u.
`2'F-ANA at 8 10 12 13`: “mean fluorescence intensity” 200 a.u.
Under “mean fluorescence intensity”, `2'F-ANA at 1 5 11 12 13` is recorded as 81.2 a.u.
Under “mean fluorescence intensity”, `2'F-ANA at 7 11 12 13 14 15` is recorded as 249 a.u.
`2'F-ANA at 1 2 5 6 7 8 9 10 11 15`: “mean fluorescence intensity” 50.9 a.u.
Under “mean fluorescence intensity”, `2'F-ANA at 4 7 8 9 14` is recorded as 109 a.u.
`2'F-ANA at 2 3 4 5 7 10 11 13 14 15` — result for “mean fluorescence intensity”: 55.2 a.u.
For `2'F-ANA at 1 2 3 4 6 9 10 13 14 15`, “mean fluorescence intensity” read 53.6 a.u.
Under “mean fluorescence intensity”, `2'F-ANA at 1 3 6 8 9 11 12 13` is recorded as 344 a.u.
`2'F-ANA at 1 3 5 6 7 8 9 10 11 15`: “mean fluorescence intensity” 51.1 a.u.
Under “mean fluorescence intensity”, `2'F-ANA at 1 5 6 12` is recorded as 115 a.u.
For `2'F-ANA at 1 2 3 7 8 9 13`, “mean fluorescence intensity” read 237 a.u.
Under “mean fluorescence intensity”, `2'F-ANA at 3 4 5 10 11 13 15` is recorded as 48.2 a.u.
`2'F-ANA at 1 5 8 10 11 14 15`: “mean fluorescence intensity” 65.1 a.u.
`2'F-ANA at 1 2 3 4 5 6 14` — result for “mean fluorescence intensity”: 48.6 a.u.
`2'F-ANA at 4 5 6 8 11 13 14`: “mean fluorescence intensity” 56 a.u.
`2'F-ANA at 4 6 7 8 13 14 15` — result for “mean fluorescence intensity”: 93.6 a.u.
Under “mean fluorescence intensity”, `2'F-ANA at 2 3 5 7 14 15` is recorded as 52.3 a.u.
`2'F-ANA at 1 2 3 13 15` — result for “mean fluorescence intensity”: 175 a.u.

Sample 3 — technique: universal PBM; form: double-stranded DNA, one strand shown; matrix: in vitro; tested at: 600 nM; reading: higher = stronger binding
Target: Sal-like protein 4, full length isoform A (SALL4, Homo sapiens, UniProt Q9UJQ4, residues 1-1053)
Chain of UniProt Q9UJQ4 (whole entry, looked up): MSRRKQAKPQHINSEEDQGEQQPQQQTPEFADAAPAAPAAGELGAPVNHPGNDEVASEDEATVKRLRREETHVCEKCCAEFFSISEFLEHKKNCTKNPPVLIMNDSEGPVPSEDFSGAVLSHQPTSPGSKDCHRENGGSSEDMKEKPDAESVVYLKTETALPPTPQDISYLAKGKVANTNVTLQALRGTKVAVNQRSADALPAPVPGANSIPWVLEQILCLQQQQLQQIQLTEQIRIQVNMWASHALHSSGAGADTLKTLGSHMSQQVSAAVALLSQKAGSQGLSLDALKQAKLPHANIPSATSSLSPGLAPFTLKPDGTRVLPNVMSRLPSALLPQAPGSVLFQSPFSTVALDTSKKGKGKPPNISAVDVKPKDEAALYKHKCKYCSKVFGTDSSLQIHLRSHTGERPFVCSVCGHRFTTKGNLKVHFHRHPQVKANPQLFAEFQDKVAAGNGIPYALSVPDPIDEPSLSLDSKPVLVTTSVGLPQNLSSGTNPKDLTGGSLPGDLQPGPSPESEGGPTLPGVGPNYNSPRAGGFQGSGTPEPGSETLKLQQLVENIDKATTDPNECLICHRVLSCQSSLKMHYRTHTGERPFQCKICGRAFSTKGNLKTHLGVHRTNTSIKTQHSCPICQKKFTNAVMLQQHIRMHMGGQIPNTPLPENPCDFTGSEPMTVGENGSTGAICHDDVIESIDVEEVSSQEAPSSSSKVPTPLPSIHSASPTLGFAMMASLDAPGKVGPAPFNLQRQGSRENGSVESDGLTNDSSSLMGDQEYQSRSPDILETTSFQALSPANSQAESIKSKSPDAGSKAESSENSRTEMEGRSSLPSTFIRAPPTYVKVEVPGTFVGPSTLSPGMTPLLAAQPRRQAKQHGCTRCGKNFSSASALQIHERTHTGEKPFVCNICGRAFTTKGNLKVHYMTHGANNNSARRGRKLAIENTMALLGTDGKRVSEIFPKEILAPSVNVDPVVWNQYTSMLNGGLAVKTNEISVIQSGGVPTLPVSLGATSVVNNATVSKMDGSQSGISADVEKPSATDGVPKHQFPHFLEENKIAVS
Setting: 8-mer, flanks averaged, mean of replicates
The E-score of `GAGAATAA` is reported as 0.208.
With `ATTTATCC` the E-score was 0.317.
For `ACACTTAT`, the E-score was 0.222.
`CGGTGGGC` has an E-score of -0.331.
The E-score of `TACGACTA` is reported as 0.0908.
With `AAGCTGCA` the E-score was -0.0528.
`GCAAGCGA` gave an E-score of -0.0522.
The E-score of `TGGACGAA` is reported as 0.146.
With `GTCCCCTA` the E-score was -0.27.
The E-score of `TAAAAAGA` is reported as 0.309.
With `GCTAGTCA` the E-score was -0.0614.
The E-score of `GATCACTA` is reported as -0.0103.
`CGGACACC` gave an E-score of -0.33.
For `GGCAGACA`, the E-score was -0.128.
`CCAGCCCA` has an E-score of -0.358.
For `GTACTGCA`, the E-score was -0.0567.
For `AACATCGA`, the E-score was 0.153.
With `CCCCCGGG` the E-score was -0.427.
For `AAGGAGGG`, the E-score was -0.214.
`CCGTGATA` has an E-score of 0.047.
`GTTCTACA` has an E-score of 0.0769.
For `TCCAAAGA`, the E-score was 0.0759.
`ATTAAAAG` gave an E-score of 0.22.
`GCTCGGAC` has an E-score of -0.302.
The E-score of `CGAGACAG` is reported as -0.2.

Sample 4 — technique: RNA Bind-n-Seq; form: RNA; matrix: in vitro; tested at: 365 nM; baseline: no-protein control; reading: higher = stronger binding
Target: RNA binding protein fox-1 homolog 2, RRM domain, GST-SBP tag (RBFOX2, Homo sapiens, UniProt O43251-10, residues 100-194)
Setting: natural RNA segment, single round, ends assumed
All sequences stand within: GGGAGUUCUACAGUCCGACGAUC … UGGAAUUCUCGGGUGCCAA
Target sequence (chain): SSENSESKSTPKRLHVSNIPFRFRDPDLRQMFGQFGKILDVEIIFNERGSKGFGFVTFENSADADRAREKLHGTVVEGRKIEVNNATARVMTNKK
Under “RBNS enrichment (R)”, `UCUGGAAUUGGCCUCUGUGGGCAUUGACUCGUCUUGGCCUAGGAGGCAUUGGUGCCUCCCUGGCAAGUCCUUAACGUACAGUACCUGUAGCUGUGAGUGUGGCCUGCUGC` is recorded as 0.459.
For `CUGCCUGCUUUCCUCAAGACGAGAGAGACCCCAGACUGUGUGUGGUUCAUUAGAGCAGUCUGGCCACUGGGGUGCCAGUUCGUUGGCCUUCCACGCUGAGGUACCCUCUG`, “RBNS enrichment (R)” read 1.15.
`UUUCAUGCUUUAUGUUAUGUAGAAUUUGAGUUCAUGCUGAAUGCAUUCCAGCCAGUAAUUUAUAGCCUUUCCCCUAAAUCAAGAAUGAGUUUAAAAUUAUAGUCUGUCUU`: “RBNS enrichment (R)” 0.616.
For `CGGAAAUCUUUAAGUUAUUUGUUGAGGUACCAUAUAUUUAGGGUGCUAGGGGCAAGUAAUGUUAAUAUGUGCAAUAGGAACUACUGGUUUGAAUGUGUAAAUGGGUGAUC`, “RBNS enrichment (R)” read 1.55.
For `AUUUGAUUCUGUGCAGGACACAAAUCUCACAGGAACUAUAGCACUUUGGAAAAGCAUCAAAGUAGAAAAGAAAUACAGUGCAAUUCUAUUAUGAGAAUGUUUUACAUUUA`, “RBNS enrichment (R)” read 0.696.
For `CGUCAUGGCACUAAGCCACUCAGACCAGCUACCUGUGACCCUGGUUCUCCAAGAAGCAGACGUUGGUCUAAGCCUUCAAGAGCUGCCUUAGGGUUUGGGAGAAGUUGGAA`, “RBNS enrichment (R)” read 0.244.
Under “RBNS enrichment (R)”, `AUCGUAUCGUGUGUGCGUGCGUGUGUGACGUCAGGCUGCCACGUAAACUUCAGAGAAGAACCUUAAAGCAGACCAUCCAUUUUUGCAUGCUCUCUUCUAAGUAGAAUGUU` is recorded as 2.34.
`AAGCUCAGUGUUUUAUUUCAGUAAAAAUUAUUUGGUCAUAAAUUUUGGGAAGAACUGAUUUCUUUUUUUAAAUCAAAGUUUUGUAAAUAGAUCUUACUUCUGAAUUUGAA`: “RBNS enrichment (R)” 0.867.

Excerpt of the above (sample 4):
Under “RBNS enrichment (R)”, `UCUGGAAUUGGCCUCUGUGGGCAUUGACUCGUCUUGGCCUAGGAGGCAUUGGUGCCUCCCUGGCAAGUCCUUAACGUACAGUACCUGUAGCUGUGAGUGUGGCCUGCUGC` is recorded as 0.459.
For `CUGCCUGCUUUCCUCAAGACGAGAGAGACCCCAGACUGUGUGUGGUUCAUUAGAGCAGUCUGGCCACUGGGGUGCCAGUUCGUUGGCCUUCCACGCUGAGGUACCCUCUG`, “RBNS enrichment (R)” read 1.15.
`UUUCAUGCUUUAUGUUAUGUAGAAUUUGAGUUCAUGCUGAAUGCAUUCCAGCCAGUAAUUUAUAGCCUUUCCCCUAAAUCAAGAAUGAGUUUAAAAUUAUAGUCUGUCUU`: “RBNS enrichment (R)” 0.616.
For `CGGAAAUCUUUAAGUUAUUUGUUGAGGUACCAUAUAUUUAGGGUGCUAGGGGCAAGUAAUGUUAAUAUGUGCAAUAGGAACUACUGGUUUGAAUGUGUAAAUGGGUGAUC`, “RBNS enrichment (R)” read 1.55.
